Published values pooled from the literature.
Each numbered part is a random draw from the data of one study; scales do not carry over between parts.
UniProt P42679, sequence (whole entry, looked up): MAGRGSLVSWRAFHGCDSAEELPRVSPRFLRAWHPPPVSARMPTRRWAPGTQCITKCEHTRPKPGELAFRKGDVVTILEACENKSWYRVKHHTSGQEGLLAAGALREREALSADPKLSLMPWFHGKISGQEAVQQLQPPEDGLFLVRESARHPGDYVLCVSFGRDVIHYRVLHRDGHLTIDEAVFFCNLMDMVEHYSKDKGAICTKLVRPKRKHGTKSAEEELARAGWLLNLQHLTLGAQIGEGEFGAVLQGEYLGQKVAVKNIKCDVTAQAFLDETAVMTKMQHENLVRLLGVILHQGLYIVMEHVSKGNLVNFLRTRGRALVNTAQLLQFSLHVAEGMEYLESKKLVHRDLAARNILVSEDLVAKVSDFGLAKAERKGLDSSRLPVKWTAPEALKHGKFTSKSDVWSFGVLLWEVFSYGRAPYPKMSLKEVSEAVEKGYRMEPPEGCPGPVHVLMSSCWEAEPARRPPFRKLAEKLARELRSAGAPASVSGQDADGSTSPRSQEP
UniProt P07333, sequence (whole entry, looked up): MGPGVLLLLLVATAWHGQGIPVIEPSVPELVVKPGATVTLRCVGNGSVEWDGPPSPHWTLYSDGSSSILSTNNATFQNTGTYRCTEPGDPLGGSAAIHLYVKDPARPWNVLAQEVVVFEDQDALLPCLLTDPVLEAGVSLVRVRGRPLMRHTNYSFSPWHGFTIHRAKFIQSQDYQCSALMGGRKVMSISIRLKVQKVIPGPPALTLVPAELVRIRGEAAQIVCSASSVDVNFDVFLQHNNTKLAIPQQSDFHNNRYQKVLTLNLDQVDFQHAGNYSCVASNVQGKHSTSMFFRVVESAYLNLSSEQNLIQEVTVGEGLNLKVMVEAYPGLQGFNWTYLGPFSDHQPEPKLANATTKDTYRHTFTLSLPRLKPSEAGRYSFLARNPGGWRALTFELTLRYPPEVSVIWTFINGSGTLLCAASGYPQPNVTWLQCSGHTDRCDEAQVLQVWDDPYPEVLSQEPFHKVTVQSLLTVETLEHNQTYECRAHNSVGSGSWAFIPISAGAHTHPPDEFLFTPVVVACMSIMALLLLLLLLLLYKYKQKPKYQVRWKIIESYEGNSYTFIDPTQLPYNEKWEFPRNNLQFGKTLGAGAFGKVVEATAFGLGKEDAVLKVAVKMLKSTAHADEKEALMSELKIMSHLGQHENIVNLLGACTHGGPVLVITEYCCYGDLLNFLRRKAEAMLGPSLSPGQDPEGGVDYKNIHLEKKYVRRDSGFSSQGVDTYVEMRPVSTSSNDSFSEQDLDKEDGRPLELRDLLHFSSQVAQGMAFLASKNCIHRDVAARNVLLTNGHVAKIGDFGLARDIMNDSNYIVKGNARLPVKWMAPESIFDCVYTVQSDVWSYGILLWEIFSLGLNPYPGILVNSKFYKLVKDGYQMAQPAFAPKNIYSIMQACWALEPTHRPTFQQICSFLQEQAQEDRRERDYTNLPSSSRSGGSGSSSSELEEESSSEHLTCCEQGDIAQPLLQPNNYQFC
UniProt Q8WXR4, sequence (whole entry, looked up): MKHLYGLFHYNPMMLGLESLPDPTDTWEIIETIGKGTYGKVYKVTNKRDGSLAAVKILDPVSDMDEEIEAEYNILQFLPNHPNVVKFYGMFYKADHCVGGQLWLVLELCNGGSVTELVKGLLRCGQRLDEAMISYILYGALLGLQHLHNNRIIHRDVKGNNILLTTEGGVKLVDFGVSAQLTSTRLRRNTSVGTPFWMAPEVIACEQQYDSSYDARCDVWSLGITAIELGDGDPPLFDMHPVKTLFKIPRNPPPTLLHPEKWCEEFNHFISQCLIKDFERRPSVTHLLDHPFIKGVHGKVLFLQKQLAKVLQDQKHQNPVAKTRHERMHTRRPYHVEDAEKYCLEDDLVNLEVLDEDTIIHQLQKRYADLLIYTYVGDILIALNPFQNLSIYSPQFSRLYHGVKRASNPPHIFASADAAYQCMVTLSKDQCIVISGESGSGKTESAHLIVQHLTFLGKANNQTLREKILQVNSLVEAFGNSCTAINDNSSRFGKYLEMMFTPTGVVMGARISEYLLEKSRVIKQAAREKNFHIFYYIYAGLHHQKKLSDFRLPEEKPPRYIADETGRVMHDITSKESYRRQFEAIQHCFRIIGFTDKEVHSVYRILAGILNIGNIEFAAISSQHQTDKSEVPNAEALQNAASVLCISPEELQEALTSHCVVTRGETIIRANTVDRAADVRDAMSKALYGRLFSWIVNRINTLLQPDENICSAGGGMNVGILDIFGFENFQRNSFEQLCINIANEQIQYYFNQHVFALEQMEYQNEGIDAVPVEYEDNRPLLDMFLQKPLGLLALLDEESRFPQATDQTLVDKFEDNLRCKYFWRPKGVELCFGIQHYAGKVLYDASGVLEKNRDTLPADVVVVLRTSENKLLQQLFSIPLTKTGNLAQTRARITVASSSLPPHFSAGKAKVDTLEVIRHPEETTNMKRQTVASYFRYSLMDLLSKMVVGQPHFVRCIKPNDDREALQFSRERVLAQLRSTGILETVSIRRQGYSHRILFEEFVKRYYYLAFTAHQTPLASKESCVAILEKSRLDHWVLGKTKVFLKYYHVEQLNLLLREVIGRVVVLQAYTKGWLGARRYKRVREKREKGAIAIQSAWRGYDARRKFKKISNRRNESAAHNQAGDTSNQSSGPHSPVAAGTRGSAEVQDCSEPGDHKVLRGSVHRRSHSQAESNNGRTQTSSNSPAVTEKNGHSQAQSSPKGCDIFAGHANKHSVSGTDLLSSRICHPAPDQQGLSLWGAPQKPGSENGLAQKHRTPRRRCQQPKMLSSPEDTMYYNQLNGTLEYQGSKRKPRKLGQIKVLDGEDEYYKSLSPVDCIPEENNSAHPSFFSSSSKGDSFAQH
UniProt P23458, sequence (whole entry, looked up): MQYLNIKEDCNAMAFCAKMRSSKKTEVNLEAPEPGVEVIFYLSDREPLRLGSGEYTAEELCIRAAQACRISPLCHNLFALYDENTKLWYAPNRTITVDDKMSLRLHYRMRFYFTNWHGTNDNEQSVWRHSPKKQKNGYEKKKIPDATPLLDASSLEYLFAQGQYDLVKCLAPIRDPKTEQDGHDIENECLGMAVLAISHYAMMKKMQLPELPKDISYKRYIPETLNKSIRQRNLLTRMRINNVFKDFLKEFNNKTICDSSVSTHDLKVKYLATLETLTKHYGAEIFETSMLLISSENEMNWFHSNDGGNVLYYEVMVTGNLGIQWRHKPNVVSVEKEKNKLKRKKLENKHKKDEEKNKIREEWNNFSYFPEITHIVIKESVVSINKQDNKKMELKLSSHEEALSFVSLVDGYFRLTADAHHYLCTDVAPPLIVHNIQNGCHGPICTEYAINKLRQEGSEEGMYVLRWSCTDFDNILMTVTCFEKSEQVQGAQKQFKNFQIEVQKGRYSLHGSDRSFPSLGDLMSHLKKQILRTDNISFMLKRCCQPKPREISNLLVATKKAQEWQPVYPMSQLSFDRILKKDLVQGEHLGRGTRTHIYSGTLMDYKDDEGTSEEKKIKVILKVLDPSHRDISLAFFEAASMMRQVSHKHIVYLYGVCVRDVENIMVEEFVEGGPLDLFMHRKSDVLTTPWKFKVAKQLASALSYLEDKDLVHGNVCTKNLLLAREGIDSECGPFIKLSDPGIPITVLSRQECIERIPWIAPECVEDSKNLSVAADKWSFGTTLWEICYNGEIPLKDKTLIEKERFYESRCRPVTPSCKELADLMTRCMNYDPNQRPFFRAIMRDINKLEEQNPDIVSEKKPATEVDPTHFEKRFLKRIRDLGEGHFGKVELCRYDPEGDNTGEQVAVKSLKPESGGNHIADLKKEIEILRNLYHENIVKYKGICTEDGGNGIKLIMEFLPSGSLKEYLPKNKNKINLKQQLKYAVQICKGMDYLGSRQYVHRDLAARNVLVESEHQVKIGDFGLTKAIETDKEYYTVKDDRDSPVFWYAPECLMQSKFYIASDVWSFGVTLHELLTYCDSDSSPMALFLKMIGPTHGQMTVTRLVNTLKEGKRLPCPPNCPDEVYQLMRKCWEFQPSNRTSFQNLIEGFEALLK
UniProt Q13043, sequence (whole entry, looked up): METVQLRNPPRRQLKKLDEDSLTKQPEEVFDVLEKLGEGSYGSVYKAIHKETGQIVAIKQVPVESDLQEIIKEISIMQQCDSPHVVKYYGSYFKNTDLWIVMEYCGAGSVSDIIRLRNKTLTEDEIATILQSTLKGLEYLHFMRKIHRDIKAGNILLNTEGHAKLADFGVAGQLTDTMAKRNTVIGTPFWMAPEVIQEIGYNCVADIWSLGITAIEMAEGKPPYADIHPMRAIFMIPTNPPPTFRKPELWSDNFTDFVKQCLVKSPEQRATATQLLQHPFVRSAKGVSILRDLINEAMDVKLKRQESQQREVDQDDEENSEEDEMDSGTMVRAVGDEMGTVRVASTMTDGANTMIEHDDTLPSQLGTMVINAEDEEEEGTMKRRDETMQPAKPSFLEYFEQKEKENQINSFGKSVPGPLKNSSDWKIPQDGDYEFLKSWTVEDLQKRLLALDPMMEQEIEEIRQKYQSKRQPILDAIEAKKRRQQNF

Set 1 — read-out: cell-free assay; technique: competition with immobilised ligand; tested at: 1 µM
Structure (SMILES): O=C1NC(c2ccccn2)Sc2ccccc21 (stereo not drawn)
target | remaining binding [%]
PRKACB (Homo sapiens, UniProt P22694) | 97
MATK (Homo sapiens, UniProt P42679) | 100
CSF1R (Homo sapiens, UniProt P07333) | 85
SRPK3 (Homo sapiens, UniProt Q9UPE1) | 100
Tyrosine-protein kinase JAK1, JH2 (JAK1, Homo sapiens, UniProt P23458) | 69

Set 2 — read-out: enzyme activity; mode: inhibitor; tested at: 0.5 µM; baseline: control
Target: Protein kinase C iota type (PRKCI, Homo sapiens, UniProt P41743)
UniProt P41743, sequence (whole entry, looked up): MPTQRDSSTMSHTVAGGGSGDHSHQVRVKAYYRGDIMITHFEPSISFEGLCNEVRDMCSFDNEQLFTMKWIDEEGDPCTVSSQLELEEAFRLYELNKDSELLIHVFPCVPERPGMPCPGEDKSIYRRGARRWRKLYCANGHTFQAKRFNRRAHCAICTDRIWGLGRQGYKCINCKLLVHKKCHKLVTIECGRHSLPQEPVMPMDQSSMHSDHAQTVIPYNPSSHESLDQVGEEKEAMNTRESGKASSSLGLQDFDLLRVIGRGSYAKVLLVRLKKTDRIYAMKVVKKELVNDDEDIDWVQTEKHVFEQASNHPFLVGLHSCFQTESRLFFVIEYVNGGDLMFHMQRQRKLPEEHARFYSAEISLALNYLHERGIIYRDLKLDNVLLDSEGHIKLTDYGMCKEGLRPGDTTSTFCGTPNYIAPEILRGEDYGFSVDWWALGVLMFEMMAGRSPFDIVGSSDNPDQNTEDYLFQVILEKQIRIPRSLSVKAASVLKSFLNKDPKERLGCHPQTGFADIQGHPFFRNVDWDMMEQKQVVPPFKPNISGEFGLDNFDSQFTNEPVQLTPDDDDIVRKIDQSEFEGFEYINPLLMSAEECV
Structure (SMILES) | remaining activity [%]
O=C(O)c1ccc2c3c1cccc3c(=O)n1c3ccccc3nc21 | 94.6
Cc1cccc(-c2[nH]c(C(C)(C)C)nc2-c2ccc3c(c2)OCO3)n1 | 92.8
COc1ccc(C(=O)Nc2sc3c(c2C(N)=O)CCCC3)cc1OC | 91.8
O=c1c2ccccc2[nH]c(=S)n1CCN1CCC(=C(c2ccc(F)cc2)c2ccc(F)cc2)CC1 | 96.3
Cn1c2ccccc2c2c3c(c4c5ccccc5n(CCC#N)c4c21)CNC3=O | 91.6
Nc1ncnc2n[nH]c(Nc3ccc(F)cc3)c12 | 91.3
CN(C)c1ccc(C=C2C(=O)Nc3ccccc32)cc1 | 101
COc1cc2ncnc(Nc3ccc(Oc4ccccc4)cc3)c2cc1OC | 108
Cn1sc(=O)n(Cc2ccccc2)c1=O | 95.2
O=S(=O)(c1cccc2cnccc12)N1CCCNCC1 | 87.2
COc1cc2ncnc(Nc3ccc(F)c(Cl)c3)c2cc1OCCCN1CCOCC1 | 96.9
Cc1ccc(NC(=O)c2ccc(CN3CCN(C)CC3)cc2)cc1Nc1nc(-c2cccnc2)cs1 | 93.7
O=C(CCCc1ccc(-c2ccccc2F)cc1)Nc1ccc(O)cc1 | 95.5
O=C(Nc1cccc(Nc2cc(Nc3cccc(C(F)(F)F)c3)ncn2)c1)C1CC1 | 98.1
COc1ccc(CNC(=O)Nc2ncc([N+](=O)[O-])s2)cc1 | 94.4
OCC(O)CCON=C1C(c2c(O)[nH]c3ccccc23)=Nc2ccccc21 (stereo not drawn) | 100

Set 3 — read-out: binding; tested at: 1 µM
SMILES: Cc1ccc(NC(=O)c2ccnc(C(F)(F)F)c2)cc1-c1cc(OCCO)nc(N2CCOCC2)c1
target | technique | remaining binding
Myosin-IIIb (MYO3B, Homo sapiens, UniProt Q8WXR4) | competition with immobilised ligand | 100%
PIK3CA (Homo sapiens, UniProt P42336, M1043I) | – | 94%
TGFBR2 (Homo sapiens, UniProt P37173) | competition with immobilised ligand | 100%
MATK (Homo sapiens, UniProt P42679) | – | 90%
STK4 (Homo sapiens, UniProt Q13043) | competition with immobilised ligand | 100%

Set 4 — host: mouse; medium: microsomes or S9; tested at: 2 µM; time: 0.5 h
Compound | remaining compound
CC(C)Cn1ccnc1NC(=O)c1cnc(C(C)(C)C)s1 | 25.3%
O=c1ccc(-n2ccnc2)nn1CC(O)COc1ccc(Oc2ccccc2)cc1 (stereo not drawn) | 45.9%
COc1ccc(OC)c(NC(=O)c2cc3cccc4c3n2CC(C)S4)c1 (stereo not drawn) | 13.2%
CC(C)n1/c(=N/C(=O)c2ccccc2Br)c(C#N)cc2c(=O)n3ccccc3cc21 | 37.1%
COc1ccc(C2C(C(=O)N3CCN(c4ccccn4)CC3)CCC(=O)N2c2cc(OC)c(OC)c(OC)c2)cc1 (stereo not drawn) | 49.8%
Cc1onc2c1COC2c1c(Cl)cccc1Cl (stereo not drawn) | 76.2%
Brc1cccc(Nc2ncnc3cc4c(cc23)OC(COCc2ccccc2)CO4)c1 (stereo not drawn) | 28.3%

A few entries again (set 2):
Structure (SMILES) | remaining activity [%]
Cn1sc(=O)n(Cc2ccccc2)c1=O | 95.2
O=S(=O)(c1cccc2cnccc12)N1CCCNCC1 | 87.2
COc1cc2ncnc(Nc3ccc(F)c(Cl)c3)c2cc1OCCCN1CCOCC1 | 96.9
Cc1ccc(NC(=O)c2ccc(CN3CCN(C)CC3)cc2)cc1Nc1nc(-c2cccnc2)cs1 | 93.7
